{"data": "Results collected from several papers", "note": "A part holds a random share of what one study measured.", "UniProt P11802, sequence (whole entry, looked up)": "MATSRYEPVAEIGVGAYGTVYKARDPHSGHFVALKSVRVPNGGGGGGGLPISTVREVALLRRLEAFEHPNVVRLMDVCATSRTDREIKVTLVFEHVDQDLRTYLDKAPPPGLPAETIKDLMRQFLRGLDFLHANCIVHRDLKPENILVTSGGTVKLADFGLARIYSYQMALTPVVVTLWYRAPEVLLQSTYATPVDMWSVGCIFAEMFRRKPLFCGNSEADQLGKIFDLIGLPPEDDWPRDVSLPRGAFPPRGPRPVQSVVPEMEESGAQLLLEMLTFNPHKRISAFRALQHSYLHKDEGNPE", "UniProt Q8TD08, sequence (whole entry, looked up)": "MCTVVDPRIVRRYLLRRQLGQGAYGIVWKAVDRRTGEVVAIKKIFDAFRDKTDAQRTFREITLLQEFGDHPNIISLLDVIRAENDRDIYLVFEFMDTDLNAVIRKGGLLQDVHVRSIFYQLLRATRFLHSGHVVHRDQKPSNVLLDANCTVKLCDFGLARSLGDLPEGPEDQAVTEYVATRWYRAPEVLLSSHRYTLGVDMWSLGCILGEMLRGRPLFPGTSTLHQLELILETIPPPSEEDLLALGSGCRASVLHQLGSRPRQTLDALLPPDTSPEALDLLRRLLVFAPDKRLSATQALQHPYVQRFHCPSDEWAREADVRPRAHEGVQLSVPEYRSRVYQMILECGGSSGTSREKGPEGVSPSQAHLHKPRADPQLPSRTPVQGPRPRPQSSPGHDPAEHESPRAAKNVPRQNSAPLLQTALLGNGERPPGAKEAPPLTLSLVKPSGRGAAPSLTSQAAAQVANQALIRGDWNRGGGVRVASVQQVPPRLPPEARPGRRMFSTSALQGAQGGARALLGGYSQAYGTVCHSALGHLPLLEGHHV", "UniProt Q9Y2K2, sequence (whole entry, looked up)": "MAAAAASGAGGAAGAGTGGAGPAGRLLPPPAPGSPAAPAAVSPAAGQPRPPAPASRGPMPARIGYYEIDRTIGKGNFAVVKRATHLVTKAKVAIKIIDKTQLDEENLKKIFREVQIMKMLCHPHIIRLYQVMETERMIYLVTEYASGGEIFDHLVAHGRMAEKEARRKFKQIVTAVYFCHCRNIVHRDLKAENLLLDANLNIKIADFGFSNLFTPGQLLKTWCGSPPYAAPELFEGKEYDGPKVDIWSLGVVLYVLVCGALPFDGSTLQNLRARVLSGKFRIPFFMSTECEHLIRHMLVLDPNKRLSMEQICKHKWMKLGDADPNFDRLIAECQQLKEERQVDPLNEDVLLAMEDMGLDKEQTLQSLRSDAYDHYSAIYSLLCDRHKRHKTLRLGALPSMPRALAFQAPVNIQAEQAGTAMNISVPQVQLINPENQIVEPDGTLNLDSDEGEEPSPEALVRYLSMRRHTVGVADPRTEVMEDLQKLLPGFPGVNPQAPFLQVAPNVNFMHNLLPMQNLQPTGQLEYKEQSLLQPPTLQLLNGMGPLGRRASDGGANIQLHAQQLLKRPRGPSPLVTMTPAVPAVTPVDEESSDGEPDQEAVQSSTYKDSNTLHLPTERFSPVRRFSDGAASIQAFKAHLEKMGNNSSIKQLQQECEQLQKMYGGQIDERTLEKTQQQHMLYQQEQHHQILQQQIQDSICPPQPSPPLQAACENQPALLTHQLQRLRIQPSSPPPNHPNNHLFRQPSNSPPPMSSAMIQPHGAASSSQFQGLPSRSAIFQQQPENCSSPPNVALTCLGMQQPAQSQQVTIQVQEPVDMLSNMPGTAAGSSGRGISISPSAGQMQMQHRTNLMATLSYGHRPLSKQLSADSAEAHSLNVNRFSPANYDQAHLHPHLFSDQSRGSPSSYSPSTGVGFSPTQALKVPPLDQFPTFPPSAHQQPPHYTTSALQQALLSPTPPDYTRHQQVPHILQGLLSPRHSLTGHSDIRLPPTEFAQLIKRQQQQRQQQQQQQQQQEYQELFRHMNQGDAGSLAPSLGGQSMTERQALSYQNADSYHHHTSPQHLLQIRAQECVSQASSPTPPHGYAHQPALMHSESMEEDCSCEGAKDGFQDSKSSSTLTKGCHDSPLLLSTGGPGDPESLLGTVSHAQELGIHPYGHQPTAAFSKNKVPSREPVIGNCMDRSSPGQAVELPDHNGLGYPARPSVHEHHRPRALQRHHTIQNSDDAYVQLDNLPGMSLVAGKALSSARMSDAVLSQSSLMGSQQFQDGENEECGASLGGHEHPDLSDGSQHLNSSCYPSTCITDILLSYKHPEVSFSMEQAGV", "UniProt P06239, sequence (whole entry, looked up)": "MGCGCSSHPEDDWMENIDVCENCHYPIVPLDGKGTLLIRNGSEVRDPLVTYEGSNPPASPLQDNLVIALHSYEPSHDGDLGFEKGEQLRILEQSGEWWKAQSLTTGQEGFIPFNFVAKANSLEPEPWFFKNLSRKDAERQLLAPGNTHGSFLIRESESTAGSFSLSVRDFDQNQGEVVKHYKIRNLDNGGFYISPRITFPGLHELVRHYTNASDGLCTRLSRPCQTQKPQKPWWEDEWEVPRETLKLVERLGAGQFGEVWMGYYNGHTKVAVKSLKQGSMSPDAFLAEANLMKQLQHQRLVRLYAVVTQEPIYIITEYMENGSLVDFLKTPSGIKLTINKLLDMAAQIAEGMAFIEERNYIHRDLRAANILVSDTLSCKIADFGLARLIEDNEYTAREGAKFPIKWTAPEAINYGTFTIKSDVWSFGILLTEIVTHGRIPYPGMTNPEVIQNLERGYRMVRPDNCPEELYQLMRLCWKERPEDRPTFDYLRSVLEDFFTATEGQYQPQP", "UniProt P30988, sequence (whole entry, looked up)": "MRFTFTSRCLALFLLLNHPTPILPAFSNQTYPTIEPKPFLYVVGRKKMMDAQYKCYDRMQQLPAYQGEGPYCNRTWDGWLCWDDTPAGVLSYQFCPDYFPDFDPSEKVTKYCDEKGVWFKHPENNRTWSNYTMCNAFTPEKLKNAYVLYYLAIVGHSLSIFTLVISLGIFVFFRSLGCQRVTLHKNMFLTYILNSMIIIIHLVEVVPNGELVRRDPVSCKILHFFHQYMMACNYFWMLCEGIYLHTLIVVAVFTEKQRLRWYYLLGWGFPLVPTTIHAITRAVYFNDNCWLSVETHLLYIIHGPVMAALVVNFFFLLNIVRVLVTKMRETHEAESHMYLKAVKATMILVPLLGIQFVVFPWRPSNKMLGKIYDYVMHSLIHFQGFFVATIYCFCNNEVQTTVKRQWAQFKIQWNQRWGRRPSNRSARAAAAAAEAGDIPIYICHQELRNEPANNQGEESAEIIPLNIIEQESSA", "UniProt Q13177, sequence (whole entry, looked up)": "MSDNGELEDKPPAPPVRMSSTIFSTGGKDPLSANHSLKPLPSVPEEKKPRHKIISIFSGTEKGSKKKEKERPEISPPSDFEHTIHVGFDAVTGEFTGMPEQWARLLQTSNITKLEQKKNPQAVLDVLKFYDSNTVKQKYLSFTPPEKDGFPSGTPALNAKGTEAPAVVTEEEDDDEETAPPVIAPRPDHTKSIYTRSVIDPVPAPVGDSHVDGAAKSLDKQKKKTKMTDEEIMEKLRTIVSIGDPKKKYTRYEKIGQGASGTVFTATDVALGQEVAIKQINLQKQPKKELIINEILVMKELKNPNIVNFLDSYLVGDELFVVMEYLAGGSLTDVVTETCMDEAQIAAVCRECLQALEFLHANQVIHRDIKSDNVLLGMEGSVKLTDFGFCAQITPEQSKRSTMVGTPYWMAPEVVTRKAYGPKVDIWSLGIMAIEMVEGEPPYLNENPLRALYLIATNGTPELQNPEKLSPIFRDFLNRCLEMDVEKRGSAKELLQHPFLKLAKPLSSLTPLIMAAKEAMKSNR", "UniProt P51955, sequence (whole entry, looked up)": "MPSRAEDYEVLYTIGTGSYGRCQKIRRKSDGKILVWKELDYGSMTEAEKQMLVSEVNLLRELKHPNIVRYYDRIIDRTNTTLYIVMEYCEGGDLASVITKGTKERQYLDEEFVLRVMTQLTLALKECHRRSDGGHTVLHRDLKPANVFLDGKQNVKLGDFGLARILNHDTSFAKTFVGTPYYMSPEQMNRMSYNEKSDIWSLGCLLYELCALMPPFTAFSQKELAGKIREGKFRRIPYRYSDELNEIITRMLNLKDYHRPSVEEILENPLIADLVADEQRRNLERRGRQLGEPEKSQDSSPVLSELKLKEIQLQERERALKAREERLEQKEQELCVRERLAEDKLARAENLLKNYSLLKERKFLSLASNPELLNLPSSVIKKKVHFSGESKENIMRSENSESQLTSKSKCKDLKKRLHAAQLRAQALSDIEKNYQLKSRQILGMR", "UniProt Q96P66, sequence (whole entry, looked up)": "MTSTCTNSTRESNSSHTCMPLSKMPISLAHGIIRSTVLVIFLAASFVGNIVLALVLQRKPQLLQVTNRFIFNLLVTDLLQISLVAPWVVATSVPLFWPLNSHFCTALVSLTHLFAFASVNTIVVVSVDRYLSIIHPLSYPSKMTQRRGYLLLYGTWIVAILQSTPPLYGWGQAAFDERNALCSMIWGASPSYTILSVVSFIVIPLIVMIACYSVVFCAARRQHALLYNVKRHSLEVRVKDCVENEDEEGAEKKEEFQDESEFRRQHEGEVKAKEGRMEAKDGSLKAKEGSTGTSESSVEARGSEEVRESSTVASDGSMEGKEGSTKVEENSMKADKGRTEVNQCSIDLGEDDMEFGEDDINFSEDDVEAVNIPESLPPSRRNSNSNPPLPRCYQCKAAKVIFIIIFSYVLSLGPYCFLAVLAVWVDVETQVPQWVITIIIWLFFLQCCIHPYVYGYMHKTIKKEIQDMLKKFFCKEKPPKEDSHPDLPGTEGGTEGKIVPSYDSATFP", "UniProt P25024, sequence (whole entry, looked up)": "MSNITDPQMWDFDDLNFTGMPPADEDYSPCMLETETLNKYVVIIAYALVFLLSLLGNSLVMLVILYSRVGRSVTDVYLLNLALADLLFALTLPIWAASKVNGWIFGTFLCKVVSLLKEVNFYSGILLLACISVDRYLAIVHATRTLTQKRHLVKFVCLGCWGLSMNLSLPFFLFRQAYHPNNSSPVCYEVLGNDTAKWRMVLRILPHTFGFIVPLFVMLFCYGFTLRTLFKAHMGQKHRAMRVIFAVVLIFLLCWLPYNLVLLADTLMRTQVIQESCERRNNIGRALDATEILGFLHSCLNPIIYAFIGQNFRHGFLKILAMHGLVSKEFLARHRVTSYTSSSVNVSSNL"}
{"data": "Sample 1", "SMILES": "CC(C)CN(C)c1nc(N)c(C(=O)N=C(N)N)nc1Cl", "read-out": "β-arrestin recruitment", "action": "agonist", "technique": "PRESTO-Tango", "concentration": "10 µM", "reference": "untreated"}
{"target": "BRS3 (Homo sapiens, UniProt P32247)", "fold over basal": 3.31}
{"target": "NPBWR1 (Homo sapiens, UniProt P48145)", "fold over basal": 0.96}
{"target": "Opsin-3 (OPN3, Homo sapiens, UniProt Q9H1Y3)", "fold over basal": 1.67}
{"target": "Calcitonin receptor, isoform b (CALCR, Homo sapiens, UniProt P30988)", "fold over basal": 0.81}
{"target": "CXCR1 (Homo sapiens, UniProt P25024)", "fold over basal": 0.93}
{"target": "GPR101 (Homo sapiens, UniProt Q96P66)", "fold over basal": 1.05}
{"target": "Adhesion G-protein coupled receptor D1 (ADGRD1, Homo sapiens, UniProt Q6QNK2)", "fold over basal": 0.78}
{"target": "G-protein coupled receptor 61 (GPR61, Homo sapiens, UniProt Q9BZJ8)", "fold over basal": 0.73}
{"target": "NPY1R (Homo sapiens, UniProt P25929)", "fold over basal": 0.89}
{"target": "Probable G-protein coupled receptor 25 (GPR25, Homo sapiens, UniProt O00155)", "fold over basal": 0.94}
{"target": "Adhesion G-protein coupled receptor G5 (ADGRG5, Homo sapiens, UniProt Q8IZF4)", "fold over basal": 0.52}
{"target": "CHRM4 (Homo sapiens, UniProt P08173)", "fold over basal": 0.68}
{"target": "NPY4R (Homo sapiens, UniProt P50391)", "fold over basal": 0.26}
{"target": "G-protein coupled receptor 15 (Homo sapiens, UniProt P49685)", "fold over basal": 0.76}
{"target": "G-protein coupled receptor 12 (GPR12, Homo sapiens, UniProt P47775)", "fold over basal": 0.92}
{"data": "Sample 2", "target": "Diamine acetyltransferase 1 (Homo sapiens, UniProt P21673)", "action": "inhibitor", "concentration": "10 µM", "reference": "control", "Target sequence (P21673 1-171)": "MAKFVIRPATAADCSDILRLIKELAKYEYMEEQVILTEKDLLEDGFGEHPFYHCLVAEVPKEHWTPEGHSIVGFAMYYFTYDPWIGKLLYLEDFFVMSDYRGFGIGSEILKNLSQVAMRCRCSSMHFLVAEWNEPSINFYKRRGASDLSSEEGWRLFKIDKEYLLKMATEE"}
{"SMILES": "O=C(O)/C=C\\C(=O)O", "remaining activity": "80.9%"}
{"SMILES": "CC1(C)[C@@H](O[C@@H]2O[C@H](C(=O)O)[C@@H](O)[C@H](O)[C@H]2O)CC[C@]2(C)[C@H]3C(=O)C=C4[C@@H]5C[C@@](C)(C(=O)O)CC[C@]5(C)CC[C@@]4(C)[C@]3(C)CC[C@@H]12", "remaining activity": "109%"}
{"SMILES": "C=C[C@H]1[C@H](O[C@@H]2O[C@H](CO)[C@@H](O)[C@H](O)[C@H]2O)OC=C(C(=O)O)[C@H]1CC(=O)O", "remaining activity": "92.6%"}
{"SMILES": "CCCCCCCCCCCCCCCCCCCC", "remaining activity": "85.5%"}
{"SMILES": "C=C(C)[C@@H]1CC[C@@H](C)C[C@H]1O", "remaining activity": "95.7%"}
{"SMILES": "CCCCCCCCCCCCCCC", "remaining activity": "96.7%"}
{"SMILES": "O=c1c(O)c(-c2cc(O)c(O)c(O)c2)oc2cc(O)cc(O)c12", "remaining activity": "80.9%"}
{"SMILES": "Cc1c[nH]c(=O)[nH]c1=O", "remaining activity": "98.1%"}
{"SMILES": "O=c1[nH]cnc2c1ncn2[C@@H]1O[C@H](CO)[C@@H](O)[C@H]1O", "remaining activity": "85.7%"}
{"data": "Sample 3", "SMILES": "C[C@@H]1CN(c2cc(-c3n[nH]c4ccc(OC5(C)CC5)cc34)ncn2)C[C@H](C)O1", "read-out": "cell-free assay", "technique": "competition with immobilised ligand", "concentration": "0.1 µM"}
{"target": "CDK4 (Homo sapiens, UniProt P11802)", "remaining binding": "71%"}
{"target": "Cyclin-dependent kinase 4, with cyclin D1 (CDK4, Homo sapiens, UniProt P11802)", "remaining binding": "97%"}
{"target": "LCK (Homo sapiens, UniProt P06239)", "remaining binding": "100%"}
{"target": "PTK6 (Homo sapiens, UniProt Q13882)", "remaining binding": "100%"}
{"target": "Tyrosine-protein kinase ABL1, non-phosphorylated (ABL1, Homo sapiens, UniProt P00519, H396P)", "remaining binding": "96%"}
{"target": "MARK4 (Homo sapiens, UniProt Q96L34)", "remaining binding": "100%"}
{"target": "CDC42BPA (Homo sapiens, UniProt Q5VT25)", "remaining binding": "90%"}
{"target": "CHUK (Homo sapiens, UniProt O15111)", "remaining binding": "76%"}
{"target": "FLT3 (Homo sapiens, UniProt P36888, R834Q)", "remaining binding": "78%"}
{"target": "EGFR (Homo sapiens, UniProt P00533, del747-750/T751S)", "remaining binding": "53%"}
{"target": "MAPK13 (Homo sapiens, UniProt O15264)", "remaining binding": "96%"}
{"target": "MKNK2 (Homo sapiens, UniProt Q9HBH9)", "remaining binding": "74%"}
{"target": "Tyrosine-protein kinase ABL1, non-phosphorylated (ABL1, Homo sapiens, UniProt P00519)", "remaining binding": "87%"}
{"target": "TAOK2 (Homo sapiens, UniProt Q9UL54)", "remaining binding": "73%"}
{"target": "MAPK15 (Homo sapiens, UniProt Q8TD08)", "remaining binding": "81%"}
{"target": "MAP3K1 (Homo sapiens, UniProt Q13233)", "remaining binding": "63%"}
{"target": "PAK2 (Homo sapiens, UniProt Q13177)", "remaining binding": "95%"}
{"target": "CDK11B (Homo sapiens, UniProt P21127)", "remaining binding": "88%"}
{"target": "MYLK4 (Homo sapiens, UniProt Q86YV6)", "remaining binding": "100%"}
{"target": "KDR (Homo sapiens, UniProt P35968)", "remaining binding": "82%"}
{"target": "SIK3 (Homo sapiens, UniProt Q9Y2K2)", "remaining binding": "74%"}
{"target": "NEK2 (Homo sapiens, UniProt P51955)", "remaining binding": "86%"}
{"target": "EPHA3 (Homo sapiens, UniProt P29320)", "remaining binding": "93%"}
{"target": "DYRK1A (Homo sapiens, UniProt Q13627)", "remaining binding": "95%"}
{"target": "STK33 (Homo sapiens, UniProt Q9BYT3)", "remaining binding": "86%"}
{"data": "Single results of other studies"}
{"Structure (SMILES)": "C[C@@H]1CN(c2ccc(-c3cc(C(=O)NCCOCCOCCOCCOCCNC(=O)/C=C/c4[nH]cc(C(=O)N[C@@H](CC(N)=O)c5ccc(F)c(Cl)c5)c4-c4ccc(Cl)cc4F)ccc3F)cc2NC(=O)c2c[nH]c(=O)cc2C(F)(F)F)C[C@H](C)N1C", "target": "DDB1- and CUL4-associated factor 1 (DCAF1, Homo sapiens, UniProt Q9Y4B6)", "assay": "SPR", "setting": "concentration not given", "quantity": "binding", "result": "63.3%"}
{"note": "For quick reference, copied from above (sample 2):"}
{"SMILES": "CCCCCCCCCCCCCCCCCCCC", "remaining activity": "85.5%"}
{"SMILES": "C=C(C)[C@@H]1CC[C@@H](C)C[C@H]1O", "remaining activity": "95.7%"}
{"SMILES": "CCCCCCCCCCCCCCC", "remaining activity": "96.7%"}
{"SMILES": "O=c1c(O)c(-c2cc(O)c(O)c(O)c2)oc2cc(O)cc(O)c12", "remaining activity": "80.9%"}
{"SMILES": "Cc1c[nH]c(=O)[nH]c1=O", "remaining activity": "98.1%"}
